# Assay results gathered from unrelated publications.
# Every numbered part comes from another study and shows a few of its results, in no order.

# Block 1
# Target: RNA binding protein fox-1 homolog 2, RRM domain, GST-SBP tag (RBFOX2, Homo sapiens, UniProt O43251-10, residues 100-194)
# Method: RNA Bind-n-Seq
# Form: RNA
# Matrix: in vitro
# Tested at: 365 nM
# Notes: natural RNA segment, single round, ends assumed
# Baseline: no-protein control
# Reading: higher = stronger binding
# Shared flanks, not repeated: GGGAGUUCUACAGUCCGACGAUC … UGGAAUUCUCGGGUGCCAA
# Target sequence (chain): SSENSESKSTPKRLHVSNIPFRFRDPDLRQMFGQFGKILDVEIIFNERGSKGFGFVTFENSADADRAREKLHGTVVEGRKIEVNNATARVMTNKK
Sequence,RBNS enrichment (R)
AAGGAAUUUCUCUUCCUUCUUCUCCUGCCUCUAGCCUCUCCUGGAAAGGCCUGGAUAUGGUUUCUAAAAUCUCAGCUGAGAACUUCAGAAAACAGCAGCAGUAUUUUCCU,0.259
UCGGCCGAAGACCCAAGAAGGCCUAGUUGCCCGCUGGGCCUGGGGCCCUGCCCAUGCCUGGGCCAGAGUGGCGCUGGGGCCUCGGCUUCCCUUUGGCUCCUGGAAGGCAG,0.293
GAUCAGCGGUUCUUUUUGCAGCAAAGCCUGCAUCUGUGUUGACUUGCAAGAUUUUGCGUUUAUUCAGGCAAAAACUGGUCAAAAUGGUUACUACAUGAUUUGUUCCCAGA,0.304
UUCCUCCCGGCCCUGUGGGCCAGGGAGGGGCGUUGGAAACAGCACUUUAUAUUUAUAUAGAACAUUGAGGUUGUGUCAAUAAAAACAGUGUUUUGUUUAAAAAAGAGCAG,0.294
UUGCCUCCCUCAGAUAGAAAACAGCCCCCACUCCAGUCCACUCCUGACCCCUCUCCUCAAGGGAAGGCCUUGGGUGGCCCCCUCUCCUUCUCCUAGCUCUGGAGGUGCUG,0.573
GAGGUGGCUGAAAGUGGUGUCCAGAUGUCCUUCCGAGGACUCGGCGUAUCCGCCACCAGGGACAUUAAGAAACCGCACGUGAUGUCGCUAUGCUCUAACGAUCACCUCAG,3.11
GUGCUUCCUUGCUCAGUGCAAAACUGAUGAUUCUACUUGCUGUAGAUGAAUGGUUAACACGAGCUAGUUAAACAGUGCCAUUGUUUUGCCAGUGAAGCCUCCAACCCUAA,0.206
AAUUGUCCCUAAUAGAAAGCCACCUAUUCUUUGUUGGAUUUCUUCAAGUUUUUCUAAAUAAAUGUAACUUUUCACAAGAGUCAACAUUAAAAAAUAAAUUAUUUAAGAAC,0.436

# Block 2
# Target: Interferon regulatory factor 7, full length, phosphomimetic (IRF7, Homo sapiens, UniProt Q92985, residues 1-503, S101K/S471D/S472D/S475D/S476D/S477D/S483D/S484D/S487D)
# Method: protein-binding microarray
# Form: double-stranded DNA, one strand shown
# Matrix: in vitro
# Tested at: 250 nM
# Notes: 60-bp whole probe
# With: salmon DNA 0.4 mg/ml
# Baseline: random background probes
# Reading: higher = stronger binding
# Shared flanks, not repeated: GCCTAGCAC … GTCTTGATTCGCTTGACGCTGCTG
# Residues (chain): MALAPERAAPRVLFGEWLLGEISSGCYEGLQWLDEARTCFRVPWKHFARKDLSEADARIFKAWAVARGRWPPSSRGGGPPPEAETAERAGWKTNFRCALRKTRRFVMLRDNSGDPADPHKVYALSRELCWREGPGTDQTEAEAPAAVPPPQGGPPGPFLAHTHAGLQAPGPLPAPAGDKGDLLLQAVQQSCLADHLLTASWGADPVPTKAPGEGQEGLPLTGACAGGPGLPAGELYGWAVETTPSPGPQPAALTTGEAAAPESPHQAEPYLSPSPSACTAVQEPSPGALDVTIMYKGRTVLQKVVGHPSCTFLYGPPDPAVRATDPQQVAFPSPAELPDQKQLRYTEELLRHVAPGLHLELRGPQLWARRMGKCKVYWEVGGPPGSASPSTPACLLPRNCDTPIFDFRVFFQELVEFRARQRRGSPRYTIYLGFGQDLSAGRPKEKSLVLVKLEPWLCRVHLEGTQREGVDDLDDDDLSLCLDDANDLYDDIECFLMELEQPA
Sequence,log fluorescence
TCATTTTACAATTTGCTACTGTGCTAG,1.61 z-score
GACGCTATCCTTATCCTGACGTGCTAG,0.212 z-score
GACGATGTCGGGTATCGAGACGTGCTA,-0.505 z-score
TCAACTTTCTGAATGCCACTGTGCTAG,0.419 z-score
TGGGCACACTTTGGGTCCTGGTGCTAG,1.23 z-score
TTAGGTATGGGTCTCGGTTAGTGCTAG,0.925 z-score
CACGGTTTCCTTATCCTGACGTGCTAG,3.04 z-score
TTAGGAATCGGTTTCGGTTAGTGCTAG,10.7 z-score
TTAGGTATCGGGTATAGGTTAGTGCTA,0.536 z-score
GACGGACCGGGGTTTCGGGACGTGCTA,1.46 z-score
TTTTCACTTTCTTTAACTCAGTGCTAG,3.34 z-score
GGCGGTATCCTTTTCCTGACGTGCTAG,0.38 z-score
TTAGATATCAGTATCGATAAGTGCTAG,0.256 z-score
CTCGTGGTCCTGCCCTGCCTGTGCTAG,-0.349 z-score
GTCGATCTCAGACTGGAGACGTGCTAG,0.0699 z-score
GACGGTTTCCTTTTCATGACGTGCTAG,5.63 z-score
GACGGTTCTGGTTTCGGGACGTGCTAG,4.29 z-score
TTGGAACTGAGTCTCGATTAGTGCTAG,1.19 z-score
TCAGGAGTCAACTCTCTAACTGTGCTA,-1.19 z-score

# Block 3
# Target: Hepatocyte nuclear factor 3-alpha (Foxa1, Mus musculus, UniProt P35582, residues 1-468, full length assumed)
# Method: EMSA with sequencing
# Form: double-stranded DNA, one strand shown
# Matrix: in vitro
# Tested at: 10 and 20 nM
# Notes: whole designed probe, mean of two concentrations, ends assumed
# Baseline: negative control set to 0
# Reading: higher = stronger binding
# Shared flanks, not repeated: GTGAGCGGTGCCCATTGATGGGGAAC … TTTCACTGGGATCGTGGGGAC
# Residues (chain): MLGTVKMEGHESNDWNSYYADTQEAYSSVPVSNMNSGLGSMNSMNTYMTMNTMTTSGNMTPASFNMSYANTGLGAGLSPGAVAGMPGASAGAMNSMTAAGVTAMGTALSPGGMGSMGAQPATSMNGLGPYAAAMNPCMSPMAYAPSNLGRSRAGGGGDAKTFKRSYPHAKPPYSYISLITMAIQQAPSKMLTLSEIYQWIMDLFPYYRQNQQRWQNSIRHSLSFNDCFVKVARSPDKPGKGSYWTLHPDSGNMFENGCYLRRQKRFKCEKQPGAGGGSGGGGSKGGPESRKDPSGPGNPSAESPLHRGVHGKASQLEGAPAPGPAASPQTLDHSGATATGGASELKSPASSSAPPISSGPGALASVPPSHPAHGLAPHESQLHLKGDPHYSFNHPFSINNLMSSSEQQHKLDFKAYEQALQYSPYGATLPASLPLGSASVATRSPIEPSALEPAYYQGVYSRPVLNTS
Sequence,normalised bound fraction
TGCCATGGGCCTTCATTTCCAGGCTTCCAGGCTCACCAGCTCAGGAAGAGGATTTTGCTAAGCAGTGGATATATACACAAAGGCAGGGCCAATGCAAATAAGAAATTCCTGGTCCACAAATAAACATTTCTTAAGCAACCCACACAATGAAATGGATGATAGCGTTTTCTACCCGAACTTTTCTCTAATTACA,0.339 ratio
ATCCACGAACCTGGCCCTGTCTGGTAACCACAGTGAACCATCGCAAGATACAGCACTATAATGACTCACTGTGCCCAGTTGGGCTGGAAATGTGTCAACACTGGCACATCCTCAGGGACACGGAAGTGTACTTGTTTTTGGAGAGGGACTAGACCTTCATCCTTGAGGTGAAGAAGATTTTCTCTCCAGGGTG,0.0482 ratio
TTTAACAACCTATAAACAGGGCCTCGGTATTGAATTCTTTGTCTTATTTAAGTCAAAAGGAACCAGATTACTTTTTTTATGGTTTTAACAAAGTAATCTGGAGCTGGAAAATATCCAAAACTGTTCAAATCAATGTTGTTTTTTACCAGGCTAGGGCTGTTAATAAATATACCATAAATGAGCTCAGACTTTT,-0.0124 ratio
AACGCTGTAGGTCAGAAAGATGTGCTTACCTTCACACAGAGCTGCAGAAATCAGGAAGGCTGCCAAGAGAGCCACGGCCAGCTTGGAAGTCAAGATTACACACAGTGAGATGGTTCCTTCCGGTGGTTTCTTCCTGGCTCTTGTCCTAGAAGCTAGAGTGCTCTGCTGTCTCTGAAAGTTTGTGCCTTATGGA,-0.0526 ratio
GACACCCTGCCTTCTTTTCTTTCCAAAAGACTTTCTTTTCCATGTAGACCGTAGATGTTTTCTGACTGAGTCAACTTTATATCCACAAGGTCTGTTGACATTTAACATGCCAAAGATCCATACAGTGGAGCAGCCAGATGTTTAGGGCCTGGTCCTGGCTTATTGCCATGAGCATTGCTCAGATTCCCAGTCT,0.175 ratio

# Block 4
# Target: Histone acetyltransferase KAT6A, winged helix 2, GST fusion (KAT6A, Homo sapiens, UniProt Q92794, residues 85-181)
# Method: protein binding microarray
# Form: double-stranded DNA, one strand shown
# Matrix: in vitro
# Tested at: not given
# Notes: 8-mer, flanks averaged, mean of 2 arrays, mostly near background
# Baseline: not given
# Reading: higher = stronger binding
# Residues (chain): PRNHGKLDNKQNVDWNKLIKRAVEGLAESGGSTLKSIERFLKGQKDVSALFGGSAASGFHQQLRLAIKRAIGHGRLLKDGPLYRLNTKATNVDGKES
Sequence,E-score
GTCACCGA,0.0864
AAAAGCAA,0.118
CCGAGAGC,0.0761
TCGGGCCA,0.0591
GAAAGCTA,-0.0486
CTGCAAAA,0.00097
CAAATGTA,-0.224
AATGTCCC,-0.0236
AAGCTGCG,0.225
ACGAAGGA,-0.0799
AAGATGGT,-0.135
ACAGTCTC,-0.246
TTATCGAA,0.0395
CCCCGCTA,0.116
GCATCGAA,0.105
ATTGTAGC,-0.0549
GCGCTTAC,-0.0468
AACTTATA,0.0112
CCACGTTC,-0.17
CTCGTAGC,0.0421
ACATTCGC,-0.0155
CAGGGGGG,-0.116
GCTGAAGC,0.108
ATACTCTC,-0.0383
ATATGCAG,-0.128

# A few entries again (block 4):
Sequence,E-score
CAGGGGGG,-0.116
GCTGAAGC,0.108
ATACTCTC,-0.0383
ATATGCAG,-0.128
